Assay results of several laboratories.
Numbered parts are unrelated; each lists some results of a single study.

Block 1 — technique: protein binding microarray; molecule type: double-stranded DNA, one strand shown; matrix: in vitro; concentration: not given; reference: not given; direction: higher = stronger binding
Target: Histone acetyltransferase KAT6A, both winged helices, GST fusion (KAT6A, Homo sapiens, UniProt Q92794, residues 1-181)
Notes: 8-mer, flanks averaged, mean of 2 arrays, mostly near background
Construct (chain): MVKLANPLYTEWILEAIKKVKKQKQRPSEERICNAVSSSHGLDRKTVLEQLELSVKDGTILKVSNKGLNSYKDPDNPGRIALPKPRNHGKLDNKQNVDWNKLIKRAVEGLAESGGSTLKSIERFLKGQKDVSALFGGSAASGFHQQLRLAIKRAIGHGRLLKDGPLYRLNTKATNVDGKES
Sequence | E-score
CTTAAGGA | -0.186
CGAGATAC | 0.0268
GTATATAA | -0.091
ATGCTCTA | -0.054
CTTTAGAA | 0.0377
AAGAGTCC | -0.0322
CATGGGCC | -0.0629
CGGAGAGA | 0.0796
CCTTCTCG | -0.099
ATTTATGA | 0.0385
CGAGGCGC | 0.289
CCCAGGAC | -0.0909
GGTTTCAA | 0.0877
ACTCGACG | 0.105
AATTCTGA | -0.0481
GACACTGA | -0.041
ATTGCTGA | -0.14
TATACTGA | -0.0704
ATCGCCAT | 0.0502

Block 2 — technique: universal PBM; molecule type: double-stranded DNA, one strand shown; matrix: in vitro; concentration: 600 nM; direction: higher = stronger binding
Target: Sal-like protein 4, full length isoform A (SALL4, Homo sapiens, UniProt Q9UJQ4, residues 1-1053)
UniProt Q9UJQ4, sequence (whole entry, looked up): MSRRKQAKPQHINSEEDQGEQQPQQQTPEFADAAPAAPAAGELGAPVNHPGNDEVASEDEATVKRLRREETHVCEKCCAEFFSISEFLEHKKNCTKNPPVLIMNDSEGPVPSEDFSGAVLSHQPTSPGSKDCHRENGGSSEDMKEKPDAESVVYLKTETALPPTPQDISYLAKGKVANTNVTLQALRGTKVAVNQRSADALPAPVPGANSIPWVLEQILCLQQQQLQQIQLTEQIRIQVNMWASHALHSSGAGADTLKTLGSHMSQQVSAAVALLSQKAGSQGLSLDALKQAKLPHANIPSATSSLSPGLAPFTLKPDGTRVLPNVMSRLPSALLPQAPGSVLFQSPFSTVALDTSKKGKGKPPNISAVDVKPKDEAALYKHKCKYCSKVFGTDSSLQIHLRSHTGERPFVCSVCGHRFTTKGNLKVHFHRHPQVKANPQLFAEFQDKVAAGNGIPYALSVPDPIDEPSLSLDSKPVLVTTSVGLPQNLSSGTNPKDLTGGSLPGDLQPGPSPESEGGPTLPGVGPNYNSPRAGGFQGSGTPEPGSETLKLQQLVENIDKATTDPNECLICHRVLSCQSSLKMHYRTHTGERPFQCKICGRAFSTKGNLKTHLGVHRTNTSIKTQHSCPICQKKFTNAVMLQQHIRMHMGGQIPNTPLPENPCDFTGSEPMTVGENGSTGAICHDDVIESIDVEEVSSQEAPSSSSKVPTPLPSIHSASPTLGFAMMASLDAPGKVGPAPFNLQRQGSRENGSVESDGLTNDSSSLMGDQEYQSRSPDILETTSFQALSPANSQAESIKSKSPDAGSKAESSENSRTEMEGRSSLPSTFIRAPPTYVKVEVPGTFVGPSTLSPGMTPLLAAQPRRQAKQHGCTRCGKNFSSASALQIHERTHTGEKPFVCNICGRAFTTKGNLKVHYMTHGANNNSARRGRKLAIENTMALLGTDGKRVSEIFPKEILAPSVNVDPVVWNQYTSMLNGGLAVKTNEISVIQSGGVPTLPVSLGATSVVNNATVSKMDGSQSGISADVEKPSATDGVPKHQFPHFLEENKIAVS
Notes: 8-mer, flanks averaged, mean of replicates
Sequence | E-score
ACCGACGG | -0.297
ATTTAGCG | 0.122
CCTGAGTC | -0.227
CCGTTAGA | 0.0767
CGTCCCCA | -0.228
AGCCCTAG | -0.118
GCCTAGAC | -0.18
ATGCAAAA | 0.305
GGCTCACA | -0.219
ACGCAACG | -0.0854
GTGGGATA | 0.0884
AGGCAAGA | 0.128
GTCAATAA | 0.312
ACTATGTA | 0.19
ATAAGTGA | 0.24
CATCCACA | 0.0102
CTAGACCA | 0.0181
TCGCCAAA | -0.00925
ACAGACCT | -0.0424
GTTGCTAA | 0.143
CGCCGTGA | -0.14
GACCTCGC | -0.305
CGTTTGTC | -0.175

Block 3 — technique: RNA Bind-n-Seq; molecule type: RNA; matrix: in vitro; concentration: 365 nM; reference: no-protein control; direction: higher = stronger binding
Target: RNA binding protein fox-1 homolog 2, RRM domain, GST-SBP tag (RBFOX2, Homo sapiens, UniProt O43251-10, residues 100-194)
Notes: natural RNA segment, single round, ends assumed
All sequences stand within: GGGAGUUCUACAGUCCGACGAUC … UGGAAUUCUCGGGUGCCAA
Target sequence (chain): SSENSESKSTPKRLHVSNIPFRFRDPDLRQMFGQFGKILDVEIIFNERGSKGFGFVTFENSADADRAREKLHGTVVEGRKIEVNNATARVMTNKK
Sequence | RBNS enrichment (R)
GUCUCUGGGUCGGUCAGUGACAUGUAGGUAGGAAGCACUGAAAAUAGUGUUCCCAGAGCACUUUGCAACUCCCUGGGUAAGAGGGACGACACCUCUGGUUUUUCAAUACC | 0.33
AACCUUCUGGCACACCUUGUACAGAGUUUUGGGGUUCACACCCCAAAAUGACCCAACGAUGUCCACACACCACCAAAACCCAGCCAAUGGGCCACCUCUUCCUCCAAGCC | 0.377
UGCUCUGACCACUCUCCUGUCAUCCAGUUGGCUCCCAUGCUCUCUGGAGCUUCUGGGCGCAAGUUACAGACAUCAUAACCACUGAUCCUAACACACAUAACCAUCAGCCA | 0.31
GCGAGCAGCAUCUCUAGGCUCUGGUCCUGUCUGGCCAUGGUGCGCCCGUGGCCCUGCCUCCUAGUGCUCAGGACAGCUCAUUCUCUGUGCAACUUUCAGGAACUUUACUG | 2.7
UGUGCUUGUGUUAUCUUAGCAUUUAUCUUCAAACCAGCAUCUCACUAUUUAUUGACAGUGGUGUGUGUGUGUGUGUGUGUGUGUUUCUGCGUGUGCACAUAUGUGUGCAC | 0.46
CCUUGCCAUGGCAGCAAAGUACGACGACUACCACCACGAGCGCUGGCACAGGGUCCAUCCCGCCAUGGCAACAGCAGCAGGCGGCUGCCGCAGCUUCUCCAGGAACCCCU | 0.335
UUUUGACCAAGUGUAAAAAUAGCUGGCCUUUUCCUUGUGAUUGGUCUUUAUUAGUCUUUUUAAUGCCUCUAACCCUGUGGAAGCUGUCUGCACGCAGUAUCCCACUGUAG | 0.47
CCUUCUCCCUGGGUGUGCUUAAGGGGGCUCCUUGGGCCCGCCUCCCCAGGAGGUAGAAAAUGAGUGGCAGGCUAGAGAUUUCACCCAUUUUGUGGGCUGGAGUUACCAGU | 0.296
CAAGUGUUCUAACUAAAUGUGUGAGCUGUAGUUCUUGAUGUUGUAUAACUAAGCCUGUAAUUGGGCUGGUUUCUCUUACACCCUAGCACAGUUAAAAAAUGAAGUACUGU | 0.409
UCAGCCUGCCCACAUGCCACCGAGCAAACGCAUCUUGCUUUUCACAUCUCUCCUCCUACAGCCUUAAUGGCUGCUUGCUGCCAUAUGUGACAAAUCACCACCACCAGUGU | 1.72
CCACUUUAACACUAAUGCACUGACAGAUUCUAAAUAUUUUGUGAGAAAUGUUGAAAUGUUUAACCUGAUAGGCUUCUCUAUAAAAGAGUGUUUUGUUUUUUUCCCUGCAC | 1.72
ACUGGGUGGACUUUCUCAAUUGCUCUGCCAGGAGGGAACAAGCCCAGAGGCUGAAGCUUCCCAGUAUUUAGAGGUGUGGUAGGGCAGUGUCUGCAUUCCCAGGAGACCCA | 0.626

Block 4 — technique: aptamer microarray, sandwich; molecule type: DNA with 2'F-ANA; matrix: in vitro; concentration: 200 nM; with: Cy3 exosite-II aptamer, 400 nM; direction: higher = stronger binding; sequence: GGTTGGTGTGGTTGG
Target: Prothrombin, mature alpha-thrombin (F2, Homo sapiens, UniProt P00734)
Notes: whole 15-mer aptamer, many near background
Modification | mean fluorescence intensity
2'F-ANA at 1 5 7 8 9 10 11 12 13 | 46.7 a.u.
2'F-ANA at 1 2 8 9 10 11 12 13 14 | 50.5 a.u.
2'F-ANA at 1 3 4 5 6 7 10 11 14 15 | 51.9 a.u.
2'F-ANA at 5 6 8 9 10 11 12 15 | 78.1 a.u.
2'F-ANA at 2 3 5 7 10 12 14 | 75.8 a.u.
2'F-ANA at 1 3 6 7 8 9 12 13 14 15 | 115 a.u.
2'F-ANA at 2 3 6 9 10 11 12 13 | 325 a.u.
2'F-ANA at 2 5 6 10 13 15 | 46.6 a.u.
2'F-ANA at 2 3 5 6 14 15 | 82.2 a.u.
2'F-ANA at 1 2 3 8 9 12 14 | 96.2 a.u.
2'F-ANA at 1 2 3 4 13 15 | 141 a.u.
2'F-ANA at 7 8 10 14 | 115 a.u.
2'F-ANA at 1 6 8 11 12 13 15 | 281 a.u.
2'F-ANA at 2 3 6 10 13 14 | 263 a.u.
2'F-ANA at 2 3 5 8 10 11 12 14 15 | 52.1 a.u.
2'F-ANA at 3 7 8 11 13 | 1100 a.u.
2'F-ANA at 2 3 7 9 10 14 | 330 a.u.
2'F-ANA at 8 9 10 11 | 197 a.u.

Block 5 — technique: RNA Bind-n-Seq; molecule type: RNA; matrix: in vitro; concentration: 100 nM; reference: input RNA pool; direction: higher = stronger binding
Target: RING finger protein unkempt homolog, zinc fingers 1-6, SBP tag (UNK, Homo sapiens, UniProt Q9C0B0, residues 30-357)
UniProt Q9C0B0, sequence (30-357, looked up): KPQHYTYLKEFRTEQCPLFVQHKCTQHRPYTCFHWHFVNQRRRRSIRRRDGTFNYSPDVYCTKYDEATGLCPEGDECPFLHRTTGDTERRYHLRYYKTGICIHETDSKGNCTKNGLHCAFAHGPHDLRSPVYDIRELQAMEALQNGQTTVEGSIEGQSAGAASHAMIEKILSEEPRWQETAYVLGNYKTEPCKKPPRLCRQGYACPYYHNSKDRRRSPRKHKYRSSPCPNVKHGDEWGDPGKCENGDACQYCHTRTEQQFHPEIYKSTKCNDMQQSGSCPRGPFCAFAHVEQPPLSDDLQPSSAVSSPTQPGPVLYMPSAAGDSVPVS
Notes: RNA with constant flanks, vertebrate orthologous sites, ends assumed
All sequences stand within: GGGAGUUCUACAGUCCGACGAUC … CAACAGAGGAUUGAGCAUCA
Sequence | bound/input enrichment [ratio]
AAGCCCUGUGAAGGUCUACUGACCGCUCACUAUUGUCUGGUAUCUGUAAACACUUCUGUUUAGUCCCUUCAUUGUAUAAUUGAUGUUCUUUAAAACUGUCGAUGUAAAACAGGGCUUAUG | 0.604
CAUGCUUACGCUCUUCUAUGAGAGAGAUGAAUUGGGGAGAACUGUCUCUGUUUUAUAGAUUAAUUUCUUUCUAAAUUAUGACCAAAAAUAUUUUGCUAUUUCUUUCUUUGUAUAUGGACA | 0.658
ACUAGUAUCCUACCAGCCUAUCAACCUCUCUGUCUGUGCACAGCUUCAGAUGUUACCGUCUAGCUAGAUUUUUAUUUAAAAUAUGAAAAACUGCUUUUCCCAAGACGUUUUUUAAAGACA | 1.89
GGGCGACUUUGGGCGUCCGCACAGCCGGCGGGGUGACAGCUCGGUCUCGUCCCGGCGGCUUUGCUCUCCUCGCGUGGCCGCGCGUCUCCGCAGACAUGUUCCGCCUGAUCGUCUCCCAGG | 0.385
CUUUUUUUUUUUUGUUUUUUUUUGUUUUUUGGUUUUUGGGUUUUUUUUUCGGUUUUUUGGUAGUUGUUGUUACCCACGCCAUUUUACGUCUCCUUCACUGAAGGGCUAGAGUUUUAACUU | 2.79
UAAUGUGUUUUUAUUUAUUAAAGACAAUUUUGUGCUAAGGACUGUGUUAGAUUUAUAUAUUAGUGAAUUGAUUCCUCUUUGUUGUGUUACUUUUGUUGUUGAAAAUAAAAAGAACUUUGA | 2.16
UCCUCAACUUGUUCUAGCUAGUGAUCCUUCAAAGUUGAGUCAGGCAUUGAUAGUAGGUAUUAGAUGCUUUCAUUUCUUUGUUGCCACUGAUCAGAUAAACAGGCGUUAAAAACAGGAAUA | 0.636
GUAUGUGGGGUAGCCUUGGCCCCUGCCUUGGCCUUACCUCUCCUCCCUGUCACCUGUCCCUAGUUAUUUUUUUUUUAACCACCACGUGAUUAUGGUCGGUGCUGCCUUUUCCCGACCUGC | 6.14
ACAUCAUGAAUUACUGUCACUUUGGUAGCAGGUAGAACAUUUUGCAAGAAAUGUAUACACCUAGUUAAGCUGAAUAUGAUAUAUUUUUAUUAGCCUGUAAAUAAAUAUACUCUUCUGCAU | 0.925
UGAGGGAGAGAUUUCUGUGCUUUCUCAUAUUUAAUUUACUCUUUUUAAGAUAUUCCAACCUAGAGUUUUUGAUGGAACUGAUAUAUUGACAGUUCUCACCUAAGUCCUUUUAUAAAGAAU | 1.38
AUCAUCUAGUUAGGGGUAACCAUUAAUUUAUUUUAAUAAAGGAGAUGCUGAAAGUCCUAUUAGUACUGACUUUAGUUGGAGAACUGAGAUAAGGAUCUUUGAGGUAAUUCUAAAAUUCAG | 0.747

Repeated from above (block 4):
Modification | mean fluorescence intensity
2'F-ANA at 1 3 6 7 8 9 12 13 14 15 | 115 a.u.
2'F-ANA at 2 3 6 9 10 11 12 13 | 325 a.u.
2'F-ANA at 2 5 6 10 13 15 | 46.6 a.u.
2'F-ANA at 2 3 5 6 14 15 | 82.2 a.u.
2'F-ANA at 1 2 3 8 9 12 14 | 96.2 a.u.
2'F-ANA at 1 2 3 4 13 15 | 141 a.u.
2'F-ANA at 7 8 10 14 | 115 a.u.
2'F-ANA at 1 6 8 11 12 13 15 | 281 a.u.
